Measurements from different studies.
Each line is one published result; not all experiments were run side by side.
Organism: Enterococcus faecalis

SMILES | method | strain | time | temperature | setting | added | MIC
Cc1ccc2[nH]nc(-c3nnc(Nc4ccc(F)cc4)s3)c2c1 | – | ATCC 2942 | – | – | – | – | 3.9 µg/mL
C=C/C=C(\C)CC[C@H]1C[C@H](O)CC(=O)O1 | broth microdilution | KCTC 3511 | – | 37 °C | Mueller-Hinton broth | – | 64 µg/mL
Cc1ccc2[nH]nc(-c3nnc(Nc4cc(Cl)cc(Br)c4)s3)c2c1 | – | ATCC 2942 | – | – | – | – | 194 µg/mL
CN[C@H](CC(C)C)C(=O)N[C@H]1C(=O)N[C@@H](CC(N)=O)C(=O)N[C@H]2C(=O)N[C@H]3C(=O)N[C@H](C(=O)N[C@H](C(=O)O)c4cc(O)cc(O)c4-c4cc3ccc4O)[C@H](O)c3ccc(c(Cl)c3)Oc3cc2cc(c3O[C@@H]2O[C@H](CO)[C@@H](O)[C@H](O)[C@H]2O[C@H]2C[C@](C)(N)[C@H](O)[C@H](C)O2)Oc2ccc(cc2Cl)[C@H]1O | – | ATCC 29212 | – | – | – | – | 0.7 µg/mL
Cc1ccc2[nH]nc(-c3nnc(Nc4ccc([N+](=O)[O-])cc4)s3)c2c1 | – | ATCC 2942 | – | – | – | – | 9.5 µg/mL
CN(C)[C@@H]1C(O)=C(C(N)=O)C(=O)[C@@]2(O)C(O)=C3C(=O)c4c(O)c(N)nc(Cl)c4C[C@H]3C[C@@H]12 | broth microdilution CLSI | ATCC 29212 | – | – | – | – | 1 µg/mL
C[N+](C)(C)CCCN | – | BM4166, VanA vancomycin-resistant | – | – | – | lipoteichoic acid 100 µg/mL | > 800 µg/mL
CN[C@H](CC(C)C)C(=O)N[C@H]1C(=O)N[C@@H](CC(N)=O)C(=O)N[C@H]2C(=O)N[C@H]3C(=O)N[C@H](C(=O)N[C@H](C(=O)O)c4cc(O)cc(O)c4-c4cc3ccc4O)[C@H](O)c3ccc(c(Cl)c3)Oc3cc2cc(c3O[C@@H]2O[C@H](CO)[C@@H](O)[C@H](O)[C@H]2O[C@H]2C[C@](C)(N)[C@H](O)[C@H](C)O2)Oc2ccc(cc2Cl)[C@H]1O | broth microdilution | – | 18 h | – | – | – | 32 µg/mL
CCNc1nc(Cl)c2c(c1O)C(=O)C1=C(O)[C@]3(O)C(=O)C(C(N)=O)=C(O)[C@@H](N(C)C)[C@@H]3C[C@@H]1C2.Cl.Cl.Cl | broth microdilution CLSI | ATCC 29212 | – | – | – | – | 0.063 µg/mL
Cc1c2c(nn1C)CSCc1cc(n(C)n1)CSc1cc(c3ccccc3c1)OCCCc1c(C(=O)O)n(C)c3c-2c(Cl)ccc13 | broth microdilution | ATCC 29212 | – | – | – | – | 25 µM
Cc1ncc(O)c2c1C[C@H]1C[C@H]3[C@H](N(C)C)C(O)=C(C(N)=O)C(=O)[C@@]3(O)C(O)=C1C2=O.Cl.Cl | broth microdilution CLSI | ATCC 29212 | – | – | – | – | > 32 µg/mL
Cc1ccc2[nH]nc(-c3nnc(Nc4ccc(C)c(C)c4)s3)c2c1 | – | ATCC 2942 | – | – | – | – | 75.2 µg/mL
CCCNc1nc(F)c2c(c1O)C(=O)C1=C(O)[C@]3(O)C(=O)C(C(N)=O)=C(O)[C@@H](N(C)C)[C@@H]3C[C@@H]1C2.Cl.Cl | broth microdilution CLSI | ATCC 29212 | – | – | – | – | 0.5 µg/mL
CC(C)(O/N=C(\C(=O)N[C@@H]1C(=O)N2C(C(=O)[O-])=C(C[n+]3ccccc3)CS[C@H]12)c1csc(N)n1)C(=O)O | broth microdilution | – | 18 h | – | – | – | 32 µg/mL

A few entries again:
SMILES | method | strain | time | temperature | setting | added | MIC
CN[C@H](CC(C)C)C(=O)N[C@H]1C(=O)N[C@@H](CC(N)=O)C(=O)N[C@H]2C(=O)N[C@H]3C(=O)N[C@H](C(=O)N[C@H](C(=O)O)c4cc(O)cc(O)c4-c4cc3ccc4O)[C@H](O)c3ccc(c(Cl)c3)Oc3cc2cc(c3O[C@@H]2O[C@H](CO)[C@@H](O)[C@H](O)[C@H]2O[C@H]2C[C@](C)(N)[C@H](O)[C@H](C)O2)Oc2ccc(cc2Cl)[C@H]1O | – | ATCC 29212 | – | – | – | – | 0.7 µg/mL
Cc1ccc2[nH]nc(-c3nnc(Nc4ccc([N+](=O)[O-])cc4)s3)c2c1 | – | ATCC 2942 | – | – | – | – | 9.5 µg/mL
